Experimental data of several laboratories.
Parts stem from different laboratories: compare values within a part only.

Block 1
Target: RNA binding protein fox-1 homolog 2, RRM domain, GST-SBP tag (RBFOX2, Homo sapiens, UniProt O43251-10, residues 100-194)
Technique: RNA Bind-n-Seq
Form: RNA
Sample: in vitro
Tested at: 365 nM
Setting: natural RNA segment, single round, ends assumed
Relative to: no-protein control
Reading: higher = stronger binding
Shared flanks, not repeated: GGGAGUUCUACAGUCCGACGAUC … UGGAAUUCUCGGGUGCCAA
Target sequence (chain): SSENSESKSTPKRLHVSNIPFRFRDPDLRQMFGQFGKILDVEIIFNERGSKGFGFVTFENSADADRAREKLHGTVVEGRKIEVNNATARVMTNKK
Sequence	RBNS enrichment (R)
GUGACUUGGGUCUCAGUGCUAGGGUAUUGAGUCAGGCAGCUGGAGGGUUGUGGCCCGAGGCUGCAGUCAGAGGUAUACUUCCCAUAGUGCUUCACACAGCUCCCCUGCUU	0.379
UUUCAGAAAUUAUUUUAAAAGAUGCAUAGUAAAACAGUGUUUUCCUAUGGUAAGCAAAUAAGAAUGAAGUUUGUAGGGAAUAUUUGGAAUGAUUAAUAUAAAUUAGUAUA	1.07
CAAGGCCGGGGGUCGUGGCUUUGGCCUCUGACUUCUAAGCCAAGAUGCCCUGUAAACACUCUCUCAGCAGAACAAGGACAAAGUGCCGUGUCUGAGAGAGAGUGCCACAC	0.227
CACUGACCGCAAGGGACACCAAGGACCGACCCUACUCACACCAGAAGCCCUACCAGGCUUCCCAGCAGCGCCACCUUCAGGCAGGAGUCAGAACUGUCCCCUUGGAGAUG	0.28
GAUUAUCUUUAAUACCCUAGGCCUGGAUUGAGAGGCCUUCCUGUUCUAAGCCUACAAGUACUACUUGCUAUAGCUCAGACUUGUCUACAGUUCUUUGUAUGAUGCACUUU	0.963
GGGAGACCCAGAGUUCAGGCUACACACAGCUGUAAAACAGCCCCAAUCCUGACUCUGGCUAUUCGCUUCCCACCCUCUCCUUUCACUGUGAUGUGUUCCAGGUUUAGCCU	0.248
CCAACCUGACCUAACCUAGGAGGGCUCUGAGCCAACCUUGCUCUUGGGGAAGGGGACAGAUUAUGAAAUUUCAUGGAUGAAUUUUCCAGACCUAUAUCUGGAGUGAGAGG	0.242
AGAACUGUGGUGGGAGACCAAUACUCUUAACAGACUGUCCAGUAGGUAUCGGGAAUCCUUGAACAAUUUGGGUUUUCUUCCCCUUUUUUCUCUUUCGUGCUGCAUGCACA	5.01
UACUCUGAUGAAAGGACUCUUUCAUAAGCAUAUUUAUAGCUUUCUAAUCUAUACACAGUCUAUCCAUAGAUGCAUAUUUUACCCCAACUGGCUAGAGAUUUAUUUGUUGU	1.58
UAGCUGGGGAUUACAGGUGCCUACCAGCAUGCUCGGCUAAUUUUUUUGUAUUUUUAGUAGAGAAGGGAUUUCACCAUGUUGGCCGGGCUGGUCUCAAACUCCUAAGGUCA	1.32
UGUAAAAGAAAUCAUGUCCAUACACUUUGUUGCAAGAUGUGAAUUAUUGACACUGAACUUAAUAACUGUGUACUGUUCGGAAGGGGUUCCUCAAAUUUUUUGACUUUUUU	0.501
GUUUUGUUAUGUUGAGAUGUUUCUAAAGAAAAGAUUUUAUGUAAUUAUAAGAUGAAGCGUAGUGAAUUGUACAGCUGUUGUAAUAAUGACCUAUUUCUAUAUAAAAUAAA	1.22

Block 2
Target: Fragile X messenger ribonucleoprotein 1, C-terminal low-complexity region (Fmr1, Mus musculus, UniProt P35922)
Technique: RNA Bind-n-Seq
Form: RNA
Sample: in vitro
Tested at: 200 nM
Setting: whole 134-nt RNA, ends assumed
Together with: 150 mM KCl
Relative to: input library
Reading: higher = stronger binding
Shared flanks, not repeated: GGGAGUUCUACAGUCCGACGAUC … UGGAAUUCUCGGGUGUCAAGG
Sequence	log2 enrichment
CAAGUCCUGUGCUACACAUCGUAUGUACCGAAUCGGGAAAGGGAAAGGGAAAGGGAAAGUAUUAUGUUACGCCGUUCGGAUCUGCACUUC	0.441
AGUCCUGUGCUACACAUCGUAUGUACCGAAUCGGGUUUUUUUGGGUGGGUUUUUGGGAAAGUAUUAUGUUACGCCGUUCGGAUCUGCACU	0.834
AUUAAUUUGUACACAGACAGGGAAACUGGCAAGCUGAAGGGAGAGGCAACGGUCUCUUUUGAUGACCCACCUUCAGCUAAAGCAGCUAUU	-0.835
CUCAAGUCCUGUGCUACACAUCGUAUGUACCGAAUCGGUGGUGGAAAAAAAGGAAAGUAUUAUGUUACGCCGUUCGGAUCUGCACUUCCA	-0.0315
GCAGGAAGUAAAAACAAAUGGAAAUGCUUCGGAUAGUGGCAGGGGUGGGGGUGGCUAAGGAAAGGGUGGGAUGGGAGUGGGUAAAGAGUU	0.0055
GCAGGAAGUAAAAACAAAUGGAAAUGCUUCGAAAAGUGGCAGGGGUGGGGGUUGCUAAGGAAAGGGUGGGAUGGGAGUGGGUAAAGAGUU	0.239
UAACUUUAGAGGAGGAUCUGAUGGAUAUGGCAGUGGACGUGGAUUUGGCGAUGGCUAUAAUGGGUAUGGAGGAGGACCUGGAGGUGGCAA	0.313
UCCUGUGCUACACAUCGUAUGUACCGAAUCGGGCCCCCCCGGCCCCCCCGGCCCCCCCGGAAAGUAUUAUGUUACGCCGUUCGGAUCUGC	0.339
ACCAUGCAGGUGGGCAUCUUUGGGAAGUGGGGCAAGGGGGGGUUAGGGAGGGGGGUAACACUUUGGGAACAGGUGGUCCCAGGUCGUUUC	0.761
AGUCCUGUGCUACACAUCGUAUGUACCGAAUCGGUUUUUGGGUUUUUGGUUUUUGGGAAAGUAUUAUGUUACGCCGUUCGGAUCUGCACU	-0.751
AAGUCCUGUGCUACACAUCGUAUGUACCGAAUCGGUUUUUUUGGUUUUUUUGGUGGAAAGUAUUAUGUUACGCCGUUCGGAUCUGCACUU	-0.849
UGGGAGGUGGAUUUUGUUUAUUUUUUUAGCUCAUUUCCAGGGGUGGCAAUUUUUUUUUAAUAUGUGUCAUGAAUAAAGUUGUUUUUGAAA	0.375
UCAAGUCCUGUGCUACACAUCGUAUGUACCGAAUCGGUUUGGUUUUUUUGGUGGAAAGUAUUAUGUUACGCCGUUCGGAUCUGCACUUCC	-0.256
AAAUGGUAGUGUGCGGAGUUUUUUUUUCUUCCUUCUUUUAAAAAUGGUUGUUUAAGACUUUAACAAUGGGAACCCCUUGUGAGCAUGCUC	-1.1

Block 3
Target: Interferon regulatory factor 3, full length, phosphomimetic (IRF3, Homo sapiens, UniProt Q14653, residues 1-427, S386D/S396D/S398D/S402D/T404D/S405D)
UniProt Q14653, sequence (whole entry, unmodified, looked up): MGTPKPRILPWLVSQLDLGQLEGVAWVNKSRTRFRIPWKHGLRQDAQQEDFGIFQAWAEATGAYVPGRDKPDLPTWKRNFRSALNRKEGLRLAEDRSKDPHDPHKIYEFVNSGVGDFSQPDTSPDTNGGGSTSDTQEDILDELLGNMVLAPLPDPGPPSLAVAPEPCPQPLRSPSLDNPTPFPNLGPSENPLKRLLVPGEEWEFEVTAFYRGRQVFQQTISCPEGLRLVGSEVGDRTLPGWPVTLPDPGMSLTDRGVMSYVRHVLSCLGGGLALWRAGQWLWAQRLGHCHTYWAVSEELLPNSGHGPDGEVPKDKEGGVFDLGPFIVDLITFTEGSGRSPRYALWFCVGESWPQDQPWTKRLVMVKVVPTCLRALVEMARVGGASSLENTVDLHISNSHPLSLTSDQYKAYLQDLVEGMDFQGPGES
Technique: protein-binding microarray
Form: double-stranded DNA, one strand shown
Sample: in vitro
Tested at: 2540 nM top
Setting: 60-bp whole probe
Together with: salmon DNA 0.4 mg/ml
Relative to: random background probes
Reading: higher = stronger binding
Shared flanks, not repeated: GCCTAGCAC … GTCTTGATTCGCTTGACGCTGCTG
Sequence	fitted relative affinity [z-score]
TTTGATATCGGGACTGGATTAGTGCTA	0.147
GACGGTTCCCGTTTCGGGACGTGCTAG	4.7
GACGAACTGGGGACTGAAGACGTGCTA	-0.449
GATGATTTCAGTATCGAGACGTGCTAG	1.79
CTTTCTCCCAAGTCTTGTTTTGTGCTA	5.76
GACGCACTGGGGTATCGAGACGTGCTA	-0.576
GACGGTATCGGGAATCGGGACGTGCTA	1.25
TCCTATGTCATTTACATTTTGTGCTAG	0.98
AGAGAATGTGGAGAAATAGGGTGCTAG	-0.577
TTAGGACTGCTATTCCTTTAGTGCTAG	-0.262
GACCGTCTCCTACTGCTGACGTGCTAG	1.27
TCAGCTCTGCAGCTCAGACTGTGCTAG	-0.309
TTAGATTTCAGTCTCCATTAGTGCTAG	2.92
TTAGGTCTCCTTATCCATTAGTGCTAG	2.79
TCATTTCCATCTCTCAAACTGTGCTAG	5.33
GACGGTTTCCTTTCCCTGACGTGCTAG	10.4
GACGGTTTCTGGACTGGGGACGTGCTA	2.31
TTAGGTATCGGGTTCCGGTTAGTGCTA	2.56
TTAGGTTTCGACTTTCGGTTAGTGCTA	3.97
TCAACACTCGGTTTCCAACTGTGCTAG	3.38
TTAGGTTTCGGGTATCGGTAAGTGCTA	4.42
GACGGTATCGGGCCTGGGGACGTGCTA	0.424
TCATTTTTTACTTCGGGACTGTGCTAG	1.23

Block 4
Target: Histone acetyltransferase KAT6A, winged helix 2, GST fusion (KAT6A, Homo sapiens, UniProt Q92794, residues 85-181)
Technique: protein binding microarray
Form: double-stranded DNA, one strand shown
Sample: in vitro
Tested at: not given
Setting: 8-mer, flanks averaged, mean of 2 arrays, mostly near background
Relative to: not given
Reading: higher = stronger binding
Residues (chain): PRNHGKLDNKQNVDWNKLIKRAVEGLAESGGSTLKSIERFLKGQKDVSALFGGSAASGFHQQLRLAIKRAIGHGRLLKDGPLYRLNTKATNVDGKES
Sequence	E-score
AGCCGCAC	0.157
TGAACAAA	-0.00212
AGCGATTG	-0.129
GAGGATAC	-0.00892
CAGGGATA	-0.0834
CACTATAA	-0.18
AGAGTGCA	-0.194
CAACCTCA	-0.176
AATGATCG	-0.16
TCCCAACA	0.0858
ACTTCAAG	-0.132
AAATTCCA	0.0677
AACTTAGC	-0.0336
ACTCAGGA	-0.0696
ATGTCGCG	-0.0935
AATACAGG	-0.0847
CCCATTCA	-0.096
CAAAGACG	-0.0742
ACGTGAAG	-0.124

Excerpt of the above (block 4):
Sequence	E-score
AGAGTGCA	-0.194
CAACCTCA	-0.176
AATGATCG	-0.16
TCCCAACA	0.0858
ACTTCAAG	-0.132
AAATTCCA	0.0677
AACTTAGC	-0.0336
ACTCAGGA	-0.0696
ATGTCGCG	-0.0935
AATACAGG	-0.0847
CCCATTCA	-0.096
